Results from different studies.
A part holds a random share of what one study measured.

Study 1
Target: Ras GTPase-activating protein-binding protein 1, RRM domain (G3BP1, Homo sapiens, UniProt Q13283)
Sequence of UniProt Q13283 (whole entry, looked up): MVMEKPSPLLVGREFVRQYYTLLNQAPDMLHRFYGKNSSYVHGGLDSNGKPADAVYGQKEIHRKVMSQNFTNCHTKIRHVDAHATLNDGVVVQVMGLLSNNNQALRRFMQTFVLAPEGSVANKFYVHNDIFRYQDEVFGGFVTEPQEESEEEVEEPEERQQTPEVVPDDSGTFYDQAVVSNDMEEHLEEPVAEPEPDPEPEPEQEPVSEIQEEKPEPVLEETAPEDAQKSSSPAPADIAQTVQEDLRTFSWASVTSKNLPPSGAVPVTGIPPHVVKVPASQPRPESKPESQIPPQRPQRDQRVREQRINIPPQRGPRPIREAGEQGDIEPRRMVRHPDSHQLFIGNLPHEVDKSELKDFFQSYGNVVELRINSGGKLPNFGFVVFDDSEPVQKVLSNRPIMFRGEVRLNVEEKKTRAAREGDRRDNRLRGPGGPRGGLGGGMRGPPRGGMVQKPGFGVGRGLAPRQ
Technique: RNA Bind-n-Seq
Form: RNA
Medium: in vitro
Concentration: 1 µM
Setting: whole 134-nt RNA, ends assumed
Together with: 150 mM KCl
Relative to: input library
Reading: higher = stronger binding
Constant ends, left off below: GGGAGUUCUACAGUCCGACGAUC … UGGAAUUCUCGGGUGUCAAGG
| Oligonucleotide | log2 enrichment |
| --- | --- |
| UUCUUGCCUAUGCUGUGCGCCACACCAUCCAGGUGUACCGGCUCUCCAAGUACAACACGGAAGAAUUCAUCACAGUCUACCCCACCGACC | 0.097 |
| AGUCCUGUGCUACACAUCGUAUGUACCGAAUCGGGUGGGUUUUUGGGAAAAAAAGGGAAAGUAUUAUGUUACGCCGUUCGGAUCUGCACU | 0.571 |
| AAGUCCUGUGCUACACAUCGUAUGUACCGAAUCGGCCCCCGGCCCCCGGCCCCCGGAAAGUAUUAUGUUACGCCGUUCGGAUCUGCACUU | -0.627 |
| UAACUUUAGACGAGGAUCUGAUGGAUAUGGCAGUGGACGUGGAUUUGGGGAUGGCUAUAAUGGGUAUGGAGGAGGACCUGGAGGUGGCAA | -0.89 |
| UUGCUUCAAGAAGAUCCCUAAGCUGUAGAACAUUUUAACGUUGAUGCCACAACGCAGAUUGAUGCCUUGUAGAUGGAGCUUGCAGAUGGA | -0.198 |
| CCUGUGCUACACAUCGUAUGUACCGAAUCAAAUUUUUAAACCCCCCCAAAUUUUUUUAAAAAAGUAUUAUGUUACGCCGUUCGGAUCUGC | -0.483 |
| UUGAGAAGAAGCAAAAAGAGAUGGAUGAAGCUGCUACGGUGAGAGAAAACCCACUAUCGAUUCCACUCACCACUUACCUCCUUCCCUUAC | 0.0365 |
| GCAGGAAGUAAAAACAAAUGGAAAUGCUUCGGAUAGUGGCAGGGGUGGGGGUUGCUAAGGAAAGGGUGAAAUGGGAGUGGGUAAAGAGUU | 0.937 |
| GUCCUGUGCUACACAUCGUAUGUACCGAAUCGGGGAAAAGGGGAAAAGGGAAAAGGGGAAAGUAUUAUGUUACGCCGUUCGGAUCUGCAC | 0.419 |
| AGUCCUGUGCUACACAUCGUAUGUACCGAAUCGGUUUUUGGUUUUUGGAAAAAAAGGAAAGUAUUAUGUUACGCCGUUCGGAUCUGCACU | -0.0442 |
| AAGUCCUGUGCUACACAUCGUAUGUACCGAAUCGGGGAAAAGGAAAAGGAAAAGGGGAAAGUAUUAUGUUACGCCGUUCGGAUCUGCACU | -0.106 |
| UAACUUUAGAGGAGGAUCUGAUGGAUAUGGCAGUGGACGUGGAUUUGGGGAUGGCUAUGAUGGGUAUGGAGGAGGACCUGGAGGUGGCAA | -0.412 |
| AAGUCCUGUGCUACACAUCGUAUGUACCGAAUCGGCCCCGGGGCCCCGGCCCCGGGAAAGUAUUAUGUUACGCCGUUCGGAUCUGCACUU | -0.707 |
| GUCCUGUGCUACACAUCGUAUGUACCGAAUCGGGGAAAAAGGGGUGGGGUUUUUGGGGAAAGUAUUAUGUUACGCCGUUCGGAUCUGCAC | 0.763 |

Study 2
Target: Interferon regulatory factor 7, full length, phosphomimetic (IRF7, Homo sapiens, UniProt Q92985, residues 1-503, S471D/S472D/S475D/S476D/S477D/S483D/S484D/S487D)
Technique: protein-binding microarray
Form: double-stranded DNA, one strand shown
Medium: in vitro
Concentration: 2200 nM top
Setting: 60-bp whole probe
Together with: salmon DNA 0.4 mg/ml
Relative to: random background probes
Reading: higher = stronger binding
Constant ends, left off below: GCCTAGCAC … GTCTTGATTCGCTTGACGCTGCTG
Construct (chain): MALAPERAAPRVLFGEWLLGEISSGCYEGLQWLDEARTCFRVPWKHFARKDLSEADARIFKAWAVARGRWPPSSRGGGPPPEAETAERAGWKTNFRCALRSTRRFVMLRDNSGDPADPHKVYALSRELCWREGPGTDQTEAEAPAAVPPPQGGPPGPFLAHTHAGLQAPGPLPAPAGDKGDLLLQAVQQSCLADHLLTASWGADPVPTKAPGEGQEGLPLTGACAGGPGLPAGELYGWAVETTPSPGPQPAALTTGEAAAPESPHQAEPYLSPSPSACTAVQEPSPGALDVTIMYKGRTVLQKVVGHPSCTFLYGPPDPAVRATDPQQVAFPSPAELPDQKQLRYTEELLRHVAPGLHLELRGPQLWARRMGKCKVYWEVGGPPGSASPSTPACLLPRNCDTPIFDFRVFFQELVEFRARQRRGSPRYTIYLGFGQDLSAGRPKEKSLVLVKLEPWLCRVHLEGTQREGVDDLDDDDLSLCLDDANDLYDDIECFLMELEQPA
| Oligonucleotide | fitted relative affinity [z-score] |
| --- | --- |
| GACGATCTCAGACTGGATACGTGCTAG | 0.141 |
| TCAACACTAATTTTCAAACTGTGCTAG | 0.326 |
| TTAGGACTGCTGCTCCTTTAGTGCTAG | 0.129 |
| TCACTAGTGTTTTTCTCACTGTGCTAG | 1.1 |
| TTAGGTGTCGGTCTCGGTTAGTGCTAG | 0.308 |
| GACGGGATCGGGTATCGGGACGTGCTA | -0.708 |
| GACGACTTCGGGTTTCGAGACGTGCTA | 1.41 |
| GACGGTATCGACCCTGGGGACGTGCTA | -0.727 |
| TTAGGTATCCTTTCCCTTTAGTGCTAG | 2.68 |
| TTAGATTTCAGTTCCGATCAGTGCTAG | 1.59 |
| TTAGGTATCGGTATCGGGTAGTGCTAG | 0.739 |
| AGGACCATCCCTTATAAATAGGTGCTA | -0.0895 |
| TTACGTATCGGTCTCGGTTAGTGCTAG | 2.14 |
| TCAACTCCCTCTCTGGCACTGTGCTAG | 0.816 |
| GACGGTTTCGACTATCGGTACGTGCTA | 3.7 |
| GACCATCTCATATAAATAGGCGTGCTA | -0.0273 |
| GACGATCTCACTCTCGAGACGTGCTAG | 0.703 |
| TCATTTCTAATGTTTTTTACTGTGCTA | 1.31 |

Study 3
Target: RNA binding protein fox-1 homolog 2, RRM domain, GST-SBP tag (RBFOX2, Homo sapiens, UniProt O43251-10, residues 100-194)
Technique: RNA Bind-n-Seq
Form: RNA
Medium: in vitro
Concentration: 365 nM
Setting: natural RNA segment, single round, ends assumed
Relative to: no-protein control
Reading: higher = stronger binding
Constant ends, left off below: GGGAGUUCUACAGUCCGACGAUC … UGGAAUUCUCGGGUGCCAA
Residues (chain): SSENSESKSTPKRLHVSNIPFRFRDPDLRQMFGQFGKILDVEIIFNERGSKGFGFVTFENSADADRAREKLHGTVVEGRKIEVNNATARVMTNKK
| Oligonucleotide | RBNS enrichment (R) |
| --- | --- |
| UCUAGCAUUUACAAAACUCAGAUCUCAAAGCUCUGCUUGUAUUUGUGAUAUUUCAUUUGCUUAACUGUAAACCAUUUCAAGGUACUAACUUUUAAAUCUGUAUGUAAAAU | 0.607 |
| UCCUGUACUUUGCAACCCCUAAGCUUCAAACCUCUUGCUCAAGACCCAAGACUUAUUCAAAGCUGUGGCUAAGAGCAGAGACGCUGUUCACACAACGCCUCACCACCACC | 0.359 |
| AGAAUUUUGUUAAAGAAAUUCUAAAAUUUUUAAACACCUGCUCUCCACAAUAAAUCACAAACACUAAAAUAAAAUUACUUCCAUAUAAAUAUUAUUUUCUCUUUUGGUGU | 0.805 |
| UGCACUUUUUGUUCAGAGUUUAAGGCUAGGAUAUUGGUUUUUCCCACUGACUGAGCUGUCCUGCAAACCAGUCAAUACCUUAUGGUUAUGUCUGAAGGUUUUAAAUAGUG | 0.443 |
| AUCACAGCACAAGUGGCUGCAGCCUCCGCGGGGAACCAGGCGGGAGGGACUGAGUGGCCCGCGGGCCCCAGUGAGGCACUUUGUCCCGCCCAGCGCUGGCCAGCCCCGAG | 0.626 |
| GAUAGCUUUUGAAGCUUGAACACAUGCCAGUGAGAUGAAAGUUGGCCUUAGCAACUGCCCAGGUCCUGAGAAAUGGAGGGCUUGUUCAUGGGGUUAGAAACCUGCAAAGG | 0.347 |
| CCCUUUUUAUACUCCAUAUCUGUCUUCCAGAAACGUCACCUGCCUUUCUCCUGUGGUCUCUUAAUCCAGUAAUUGUAUUACUGCCAUUAAAGGAUGCAGUUAUUUUAAAA | 0.673 |
| UGGUGCUGGGGAAGGAGCCAGUUAGUGUUUCUGUGAGUUUGUGUUGUGAUGCAAUAAGAGAUAAGUAAUGCAGAGAGAAAUGAACCAUGGAAAGUAAGAACACUGAUGGU | 1.19 |
| CUCUGUGUAGCUUUGCUUAUCCUGGAACUCGAUUUGUUGACCAGGCUGGCCUUGAAUUCUCAAAAAUCCAUCUGCCUCUGCCUUUGCCUCCCCAGGCACCACUACCACCU | 0.418 |
| AGCAGAGCCCUCAGUGAGAGCUGCACACACGAGCCUCUAGCAUCACUACACAGUGUGCACACACUGGGGACUCCCCAGUCCUCCUGACUAUUAUGGGGACACAGGAAAGA | 0.413 |
| CAGUUACGUGCCAGACCUGGACCGCAUUCUCCUGCCCUGUCCUGGAGCUGGCCCCUGGCUGCCUGGAGGACCCUGGGUAGGUCCUGAGGGUGGGAUGGAGAAGAGGGCAC | 0.38 |
| CCAUGUUUGUUUGAGGUAGAAGAAUCACCAUAUAAUUCGUUGCCCAAAUUGGGACUAUUGAGAGAGAAAGGGGAUGCUAUUAAUUACACCAGAUCAAAAGGCAUAAACCA | 0.458 |

Study 4
Target: Sal-like protein 4, full length isoform A (SALL4, Homo sapiens, UniProt Q9UJQ4, residues 1-1053)
Sequence of UniProt Q9UJQ4 (whole entry, looked up): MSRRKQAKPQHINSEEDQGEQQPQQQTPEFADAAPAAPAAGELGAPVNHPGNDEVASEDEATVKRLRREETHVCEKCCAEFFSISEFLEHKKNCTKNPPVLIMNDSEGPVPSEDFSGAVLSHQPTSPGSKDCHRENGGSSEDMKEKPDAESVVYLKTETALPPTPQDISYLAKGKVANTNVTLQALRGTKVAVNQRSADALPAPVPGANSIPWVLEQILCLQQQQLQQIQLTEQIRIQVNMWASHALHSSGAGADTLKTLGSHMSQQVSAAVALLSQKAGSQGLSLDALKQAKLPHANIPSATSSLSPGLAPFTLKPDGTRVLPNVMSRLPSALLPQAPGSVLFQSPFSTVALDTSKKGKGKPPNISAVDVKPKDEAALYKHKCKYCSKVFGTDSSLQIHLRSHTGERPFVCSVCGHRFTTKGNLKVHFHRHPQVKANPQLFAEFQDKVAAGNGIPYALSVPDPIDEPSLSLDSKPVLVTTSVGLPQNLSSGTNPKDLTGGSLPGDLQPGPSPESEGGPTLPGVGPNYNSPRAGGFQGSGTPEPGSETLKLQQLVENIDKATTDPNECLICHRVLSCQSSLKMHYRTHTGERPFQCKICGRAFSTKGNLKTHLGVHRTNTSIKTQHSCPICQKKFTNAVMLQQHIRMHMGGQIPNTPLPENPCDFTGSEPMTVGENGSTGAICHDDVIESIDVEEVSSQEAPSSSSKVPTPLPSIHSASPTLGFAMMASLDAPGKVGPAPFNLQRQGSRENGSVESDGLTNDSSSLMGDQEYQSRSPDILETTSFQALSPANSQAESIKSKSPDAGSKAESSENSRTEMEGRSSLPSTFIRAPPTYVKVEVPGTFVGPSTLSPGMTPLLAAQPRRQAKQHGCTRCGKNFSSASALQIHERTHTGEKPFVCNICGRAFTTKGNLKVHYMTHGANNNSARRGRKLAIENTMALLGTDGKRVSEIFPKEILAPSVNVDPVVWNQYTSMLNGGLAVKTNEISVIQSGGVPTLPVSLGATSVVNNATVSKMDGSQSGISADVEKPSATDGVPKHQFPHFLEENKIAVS
Technique: universal PBM
Form: double-stranded DNA, one strand shown
Medium: in vitro
Concentration: 600 nM
Setting: 8-mer, flanks averaged, mean of replicates
Reading: higher = stronger binding
| Oligonucleotide | E-score |
| --- | --- |
| GTTTTGCA | 0.216 |
| ATACCGAC | 0.0326 |
| ATGTAGGC | -0.0138 |
| CTCGGTTA | -0.0929 |
| CTAAGCAA | -0.0406 |
| CCCTCGAC | -0.291 |
| ATCCAAAA | 0.232 |
| CCAATGGA | -0.11 |
| CGCAGAAA | 0.000425 |
| CAGGTGGC | -0.206 |
| AACCGTAA | 0.0542 |
| AACCATAC | 0.132 |
| ACAATACA | 0.202 |
| AACTTCAT | 0.192 |
| ACTCGTGC | -0.0827 |
| GCAGTACA | -0.14 |
| ATTCACTA | 0.128 |
| ATAACAAG | 0.322 |
| ACTCACCC | -0.167 |
| GTCGTCCA | -0.0887 |
| AGTCACCA | -0.0848 |
| GGGCGCCC | -0.371 |
| AAACATTC | 0.135 |
| ACACCAGA | -0.00877 |
| CTGATGGA | -0.0851 |

For quick reference, copied from above (study 2):
| Oligonucleotide | fitted relative affinity [z-score] |
| --- | --- |
| GACGGGATCGGGTATCGGGACGTGCTA | -0.708 |
| GACGACTTCGGGTTTCGAGACGTGCTA | 1.41 |
| GACGGTATCGACCCTGGGGACGTGCTA | -0.727 |
| TTAGGTATCCTTTCCCTTTAGTGCTAG | 2.68 |
| TTAGATTTCAGTTCCGATCAGTGCTAG | 1.59 |
